Assay results collected from several papers.
Protocols differ between the studies behind these lines. ± marks the error that the study gave. Values after ≈ are worked out from the molar mass of the structure shown.
AKR1C3: Aldo-keto reductase family 1 member C3 (AKR1C3, Homo sapiens, UniProt P42330)
Chain of UniProt P42330 (whole entry, looked up): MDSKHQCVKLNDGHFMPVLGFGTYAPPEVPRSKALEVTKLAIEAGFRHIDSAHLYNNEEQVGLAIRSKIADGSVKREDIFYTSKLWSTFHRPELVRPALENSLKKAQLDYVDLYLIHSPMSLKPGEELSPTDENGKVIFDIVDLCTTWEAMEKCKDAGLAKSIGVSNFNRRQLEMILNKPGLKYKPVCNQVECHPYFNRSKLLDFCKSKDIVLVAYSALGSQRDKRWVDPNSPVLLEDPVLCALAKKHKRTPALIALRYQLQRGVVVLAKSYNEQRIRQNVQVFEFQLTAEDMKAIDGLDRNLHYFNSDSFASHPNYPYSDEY
Chain of UniProt P49748 (whole entry, looked up): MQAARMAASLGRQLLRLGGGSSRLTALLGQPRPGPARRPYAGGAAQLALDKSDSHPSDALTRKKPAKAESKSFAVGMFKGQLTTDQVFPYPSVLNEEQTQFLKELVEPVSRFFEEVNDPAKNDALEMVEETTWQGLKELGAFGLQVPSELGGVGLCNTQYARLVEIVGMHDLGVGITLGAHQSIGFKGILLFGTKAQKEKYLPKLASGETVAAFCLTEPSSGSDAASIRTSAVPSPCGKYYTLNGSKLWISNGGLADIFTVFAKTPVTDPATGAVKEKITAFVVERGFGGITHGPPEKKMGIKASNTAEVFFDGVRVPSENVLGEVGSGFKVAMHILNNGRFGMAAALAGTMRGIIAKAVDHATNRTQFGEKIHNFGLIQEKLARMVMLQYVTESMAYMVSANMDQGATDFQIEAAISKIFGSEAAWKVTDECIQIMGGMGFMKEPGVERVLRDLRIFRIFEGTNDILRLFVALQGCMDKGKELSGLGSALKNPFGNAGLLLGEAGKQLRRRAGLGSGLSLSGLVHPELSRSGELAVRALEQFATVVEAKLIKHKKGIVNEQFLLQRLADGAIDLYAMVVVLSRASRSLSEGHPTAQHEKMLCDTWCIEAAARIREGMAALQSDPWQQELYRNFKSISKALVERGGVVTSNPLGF
Chain of UniProt P28223 (whole entry, looked up): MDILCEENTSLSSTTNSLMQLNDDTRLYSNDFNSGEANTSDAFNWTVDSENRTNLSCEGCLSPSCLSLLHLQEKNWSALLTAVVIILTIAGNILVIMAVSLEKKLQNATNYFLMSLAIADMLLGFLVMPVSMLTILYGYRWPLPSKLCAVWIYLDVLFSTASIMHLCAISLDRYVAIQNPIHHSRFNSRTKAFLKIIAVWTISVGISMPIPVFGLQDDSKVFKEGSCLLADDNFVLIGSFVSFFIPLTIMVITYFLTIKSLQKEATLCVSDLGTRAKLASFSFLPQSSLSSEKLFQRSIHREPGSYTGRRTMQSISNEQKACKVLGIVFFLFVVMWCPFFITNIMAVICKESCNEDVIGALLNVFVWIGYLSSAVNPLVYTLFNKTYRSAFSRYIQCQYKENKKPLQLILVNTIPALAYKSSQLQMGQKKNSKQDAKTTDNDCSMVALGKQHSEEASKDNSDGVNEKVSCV
Chain of UniProt Q96RI1 (whole entry, looked up): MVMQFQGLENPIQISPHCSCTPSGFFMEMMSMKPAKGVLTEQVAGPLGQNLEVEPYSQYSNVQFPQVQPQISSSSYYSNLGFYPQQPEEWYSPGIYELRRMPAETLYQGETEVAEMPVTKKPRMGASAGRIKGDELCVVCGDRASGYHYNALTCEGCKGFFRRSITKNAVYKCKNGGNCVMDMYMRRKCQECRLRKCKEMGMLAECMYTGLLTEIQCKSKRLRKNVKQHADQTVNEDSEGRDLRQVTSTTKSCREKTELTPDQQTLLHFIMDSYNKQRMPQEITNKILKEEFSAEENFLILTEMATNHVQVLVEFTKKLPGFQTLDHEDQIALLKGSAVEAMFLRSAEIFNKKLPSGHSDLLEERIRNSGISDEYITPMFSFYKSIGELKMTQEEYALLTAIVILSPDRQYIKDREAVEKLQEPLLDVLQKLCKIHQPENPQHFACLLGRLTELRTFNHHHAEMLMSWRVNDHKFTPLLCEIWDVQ
Chain of UniProt P51813 (whole entry, looked up): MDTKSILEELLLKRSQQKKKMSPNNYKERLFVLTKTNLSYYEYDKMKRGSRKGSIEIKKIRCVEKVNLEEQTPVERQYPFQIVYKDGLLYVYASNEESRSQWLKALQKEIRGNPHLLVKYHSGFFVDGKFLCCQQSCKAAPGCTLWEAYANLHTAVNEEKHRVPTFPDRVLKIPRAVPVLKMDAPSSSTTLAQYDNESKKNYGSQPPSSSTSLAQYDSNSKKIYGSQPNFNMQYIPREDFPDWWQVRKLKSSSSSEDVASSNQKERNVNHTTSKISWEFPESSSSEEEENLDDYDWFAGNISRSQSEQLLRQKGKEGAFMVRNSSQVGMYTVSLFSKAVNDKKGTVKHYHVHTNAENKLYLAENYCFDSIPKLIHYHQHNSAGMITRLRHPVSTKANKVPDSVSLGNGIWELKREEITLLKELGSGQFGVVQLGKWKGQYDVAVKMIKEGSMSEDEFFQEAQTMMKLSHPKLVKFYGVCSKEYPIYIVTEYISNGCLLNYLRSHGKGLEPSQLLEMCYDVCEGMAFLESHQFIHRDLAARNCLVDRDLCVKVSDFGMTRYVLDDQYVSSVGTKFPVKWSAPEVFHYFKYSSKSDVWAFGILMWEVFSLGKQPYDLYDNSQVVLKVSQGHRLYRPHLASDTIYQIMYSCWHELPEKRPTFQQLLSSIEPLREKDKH
Chain of UniProt P13866 (whole entry, looked up): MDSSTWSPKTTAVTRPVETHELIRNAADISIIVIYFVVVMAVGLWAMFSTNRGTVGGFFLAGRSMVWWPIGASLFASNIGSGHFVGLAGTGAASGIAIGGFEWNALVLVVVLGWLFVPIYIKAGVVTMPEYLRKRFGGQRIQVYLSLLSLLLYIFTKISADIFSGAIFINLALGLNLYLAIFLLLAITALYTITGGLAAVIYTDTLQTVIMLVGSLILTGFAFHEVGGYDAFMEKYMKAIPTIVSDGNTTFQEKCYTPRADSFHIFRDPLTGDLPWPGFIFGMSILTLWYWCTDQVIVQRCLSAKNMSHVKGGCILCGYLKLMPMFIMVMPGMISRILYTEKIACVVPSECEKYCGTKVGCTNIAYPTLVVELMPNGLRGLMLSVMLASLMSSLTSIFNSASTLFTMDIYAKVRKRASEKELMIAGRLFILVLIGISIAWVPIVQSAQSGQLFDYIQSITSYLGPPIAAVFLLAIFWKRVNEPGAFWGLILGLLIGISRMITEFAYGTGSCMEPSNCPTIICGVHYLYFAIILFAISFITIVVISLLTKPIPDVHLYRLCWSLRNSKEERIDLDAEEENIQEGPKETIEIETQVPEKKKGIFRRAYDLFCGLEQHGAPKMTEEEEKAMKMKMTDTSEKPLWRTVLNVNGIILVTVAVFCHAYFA

The inhibition of `C[C@@]12CC[C@@H]3c4cc(Cl)c(O)cc4CC[C@H]3[C@@H]1CCC2=O` is reported as 72.3% (AKR1C3; enzyme activity, inhibitor, absorbance; 100 µM, pH 9).
For `COc1cc(C(=O)NC2CCC(N3CCN(CC4CCC5(CCCC5)C4)CC3)CC2)c(F)cc1Nc1ncc2c(n1)N(C1CCCC1(F)F)CC(F)(F)C(=O)N2C` (centres unmarked), the inhibition was 2.03% (Cytoplasmic tyrosine-protein kinase BMX (BMX, Homo sapiens, UniProt P51813); cell-free assay, TR-FRET; 10 µM).
For `CCCCC/C=C/C(=O)CCc1ccc(O)c(OC)c1`, the IC50 was 4.99 ng/mL (≈ 0.0181 µM) (mAb 3-LD3; antibody binding, indirect competitive ELISA; with: coating antigen hapten 3-OVA).
The Vmax of `NS(=O)(=O)Nc1ncnc(OCCOc2ncc(Br)cn2)c1-c1ccc(Br)cc1` is reported as 3.3 fold (item: compound formation; Beagle dog male, liver microsomes; 500 mg/kg, 4 weeks; reference: vehicle).
`CC(C)CCC[C@@H](C)[C@H]1CC[C@@H]([C@@H]2CC[C@H]3C[C@H](O)CC[C@]3(C)C2=O)[C@]1(C)CC(=O)NCC(=O)O` has an inhibition of 46.9% (Bile acid receptor (NR1H4, Homo sapiens, UniProt Q96RI1); reporter gene, antagonist, luciferase; HEK-293T; 10 µM).
`COc1cc(CCC(C)=O)ccc1O` gave an IC50 of over 4000 ng/mL (mAb 3-LD3; antibody binding, indirect competitive ELISA; with: coating antigen hapten 4-OVA).
`Cc1cc(Nc2ccc(NC(=O)c3ccc(NC(=O)c4cccnc4O)cc3)cc2)nc(N)n1` gave an inhibition of 0% (DNA (cytosine-5)-methyltransferase 3A, catalytic domain (DNMT3A, Homo sapiens, UniProt Q9Y6K1); enzyme activity, inhibitor, restriction-based fluorescence; 20 µM).
For `OC[C@H]1O[C@@H](Sc2ccccc2)[C@H](O)[C@@H](O)[C@@H]1O`, the inhibition was 23.2% (Sodium/glucose cotransporter 1 (SLC5A1, Homo sapiens, UniProt P13866); transporter uptake, inhibitor, radiometric; CHO; 10 µM).
The inhibition of `N[C@H]1CCCc2c1[nH]c1ccc(Cl)cc21` is reported as 38.1 ± 5.4% (5-hydroxytryptamine receptor 2A (HTR2A, Homo sapiens, UniProt P28223); radioligand binding, antagonist radioligand displacement; 10 µM).
With `Oc1c(C(Nc2nccs2)c2cccc(OCc3ccccc3)c2)ccc2cccnc12` (centres unmarked) the inhibition was 83.6 ± 1.21% (Genome polyprotein, NS2B-NS3 protease (Dengue virus type 2, UniProt P14340); enzyme activity, inhibitor, fluorogenic; 10 µM, 0.1% CHAPS, with: Bz-Nle-Lys-Arg-Arg-AMC substrate).
With `COc1ccc2c(c1Br)CC[C@@H]1[C@@H]2CC[C@@]2(C)C(=O)CC[C@@H]12` the inhibition was 44.6% (AKR1C3; enzyme activity, inhibitor, absorbance; 10 µM, pH 9).
`CCCC[C@H](NC(C)=O)C(=O)N[C@@H](CO)C(=O)N[C@H](C(=O)N1CCC[C@H]1C(=O)N[C@]1(C)CCCCCCC=CCCC[C@@](C)(C(=O)N[C@@H](Cc2ccccc2)C(=O)N[C@@H](CCCCN)C(=O)N[C@@H](CCCNC(=N)N)C(=O)N[C@@H](CC(C)C)C(=O)N[C@@H](CCC(N)=O)C(N)=O)NC(=O)[C@H](CCCNC(=N)N)NC(=O)[C@H](CCCC)NC(=O)[C@H](CC(C)C)NC(=O)[C@H](CCCNC(=N)N)NC(=O)[C@H](CCCNC(=N)N)NC(=O)[C@H](CCCNC(=N)N)NC1=O)[C@@H](C)O`: inhibition “no inhibition” (Very long-chain specific acyl-CoA dehydrogenase, mitochondrial (Homo sapiens, UniProt P49748); inhibitor; 43.2 µM, 30-fold excess).
The inhibition of `C[C@@]12CC[C@@H]3c4ccc(O)c(Br)c4CC[C@H]3[C@@H]1CCC2=O` is reported as 25% (AKR1C3; enzyme activity, inhibitor, absorbance; 10 µM, pH 9).
`C[C@H](CCC(=O)N[C@H](CC(c1c[nH]c2ccccc12)c1c[nH]c2ccccc12)C(=O)O)[C@H]1CC[C@H]2[C@@H]3CC[C@@H]4C[C@H](O)CC[C@]4(C)[C@H]3CC[C@]12C` has an inhibition of 3% (Sialyltransferase ST3Gal-I (Rattus norvegicus, UniProt Q6H8N0); enzyme activity, UPLC; 500 µM).

Excerpt of the above:
`COc1cc(CCC(C)=O)ccc1O` gave an IC50 of over 4000 ng/mL (mAb 3-LD3; antibody binding, indirect competitive ELISA; with: coating antigen hapten 4-OVA).
`Cc1cc(Nc2ccc(NC(=O)c3ccc(NC(=O)c4cccnc4O)cc3)cc2)nc(N)n1` gave an inhibition of 0% (DNA (cytosine-5)-methyltransferase 3A, catalytic domain (DNMT3A, Homo sapiens, UniProt Q9Y6K1); enzyme activity, inhibitor, restriction-based fluorescence; 20 µM).
